{"data": "Results collected from several papers", "note": "Protocols differ between the studies behind these lines."}
{"SMILES": "COc1cc(Cc2cnc(N)nc2N)cc(OC)c1OC.O=c1[nH]cc(F)c(=O)[nH]1", "system": "water", "setting": "310 K, 100 rpm", "quantity": "intrinsic dissolution rate", "value": "0.11 mg cm⁻² min⁻¹"}
{"SMILES": "O=S1(=O)CC2CCCCC2CS1 (stereo not drawn)", "assay": "NMR with water suppression", "system": "deionized water", "setting": "25.0 °C", "quantity": "intrinsic aqueous solubility", "value": "1580 µM"}
{"SMILES": "CCc1nc(N)nc(N)c1C#CC(C)c1cc(-c2ccnc(OC)c2)ccc1OC (racemic)", "system": "mouse liver microsomes", "setting": "0.5 µg/mL", "quantity": "intrinsic clearance", "value": "173 µL/min/mg"}
{"SMILES": "CC(C)C(=O)N1CCC=C(c2cc3c(Nc4cc5ncsc5cc4F)ncnc3s2)C1", "system": "human liver microsomes", "setting": "1 µM", "quantity": "intrinsic clearance", "value": "< 12 mL/min/g protein"}
{"SMILES": "CCc1nc(N)nc(N)c1C#C[C@H](C)c1cc(-c2ccncc2)ccc1OC", "system": "mouse liver microsomes", "setting": "0.5 µg/mL", "quantity": "intrinsic clearance", "value": "~99 µL/min/mg"}
{"SMILES": "CC(C)C(=O)N1CC=C(c2cc3c(Nc4cc5ncsc5cc4F)ncnc3s2)CC1", "system": "human liver microsomes", "setting": "1 µM", "quantity": "intrinsic clearance", "value": "< 12 mL/min/g protein"}
{"SMILES": "NS(=O)(=O)c1ccc(NC(=O)NN[C@@H]2O[C@H](CO)[C@@H](O)[C@H](O)[C@H]2O)cc1", "system": "mouse liver microsomes", "setting": "1 µM", "quantity": "intrinsic clearance", "value": "3.83 mL/min/kg"}
{"SMILES": "CC(=O)NC1CC=C(c2cc3c(Nc4cc5ncsc5cc4F)ncnc3s2)CC1 (racemic)", "system": "human liver microsomes", "setting": "1 µM", "quantity": "intrinsic clearance", "value": "< 12 mL/min/g protein"}
{"SMILES": "CC(C)(C)NCC(SS(=O)(=O)O)c1ccccc1 (stereo not drawn)", "system": "mouse liver microsomes", "setting": "NADPH-dependent CYP part", "quantity": "intrinsic clearance", "value": "0.667 µL/min/mg"}
{"note": "A few entries again:"}
{"SMILES": "CC(C)(C)NCC(SS(=O)(=O)O)c1ccccc1 (stereo not drawn)", "system": "mouse liver microsomes", "setting": "NADPH-dependent CYP part", "quantity": "intrinsic clearance", "value": "0.667 µL/min/mg"}
